# Published values pooled from the literature.
# ± marks the error that the study gave.
Compound,target or system,assay,test system,conditions,scale,endpoint,result
CC[C@H](C)[C@@H]([C@@H](CC(=O)N1CCC[C@H]1[C@H](OC)[C@@H](C)C(=O)N[C@H](C)[C@@H](O)c1ccccc1)OC)N(C)C(=O)[C@@H](NC(=O)[C@H](C(C)C)N(C)C(=O)OCc1ccc(NC(=O)[C@H](CCCNC(N)=O)NC(=O)[C@@H](NC(=O)CCCCCN2C(=O)CC(SC[C@H](NC(=O)[C@H](CC(=O)O)NC(=O)[C@H](Cc3ccc(O)cc3)NC(=O)[C@H](Cc3c[nH]c4ccccc34)NC(=O)[C@@H](N)CCCNC(=N)N)C(=O)O)C2=O)C(C)C)cc1)C(C)C (stereo partly drawn),,,"C57BL/6 mouse, healthy, spleen","intraperitoneal, 2.5 mg/kg, 1 h",,concentration,not detected
CCCC[C@H](NC(=O)CN1CCC(NC(=O)CN2CCN(CC(N)=O)CCN(CC(N)=O)CCN(CC(N)=O)CC2)CC1)C(=O)N[C@H]1CC(=O)NCCCC[C@@H](C(N)=O)NC(=O)[C@H](Cc2c[nH]c3ccccc23)NC(=O)[C@H](CCCNC(=N)N)NC(=O)[C@@H](Cc2ccccc2)NC(=O)[C@H](Cc2c[nH]cn2)NC1=O,,iTLC,mouse serum,"72 h, 37 °C, lead-203-labelled",,intact complex,100%
CCCCCCCCCCCCCCC(=O)N[C@@H](CCCCNC(=O)CN1CCN(CC(=O)O)CCN(CC(=O)O)CCN(CC(=O)O)CC1)C(=O)NCCCC[C@@H]1NC(=O)[C@@H](Cc2ccccc2)NC(=O)[C@H](CC(=O)O)NC(=O)CNC(=O)[C@H](CCCNC(=N)N)NC1=O [indium-111 labelled],,,"female BALB/c nude mice, U-87 MG xenograft, blood","intravenous, dose not given, 4 h",,blood radioactivity,5.8 ± 0.44 %ID/g
CC[C@H](C)[C@H](NC(=O)[C@H](CO)NC(=O)[C@H](Cc1ccc(O)cc1)NC(=O)[C@H](Cc1ccc(O)cc1)NC(=O)[C@H](CC(N)=O)NC(=O)CNC(=O)[C@H](CO)NC(=O)[C@H](Cc1ccc(O)cc1)NC(=O)[C@H](CO)NC(=O)[C@H](CO)NC(=O)[C@H](CC(N)=O)NC(=O)COCCOCCNC(=O)CN1CCN(CC(=O)O)CCN(CC(=O)O)CCN(CC(=O)O)CC1)C(=O)N[C@@H](CC(C)C)C(N)=O [copper-64 labelled],,dynamic PET,"tamoxifen-induced PDAC mouse model, pancreas","4.5 min, CLDN4-expressing tumours",,maximum pancreas uptake,20.4 %IA/cc
CCCC[C@H](NC(=O)CN1CCC(NC(=S)Nc2ccc(C[C@H]3CN(CC(N)=O)CCN(CC(N)=O)CCN(CC(N)=O)CCN3CC(N)=O)cc2)CC1)C(=O)N[C@H]1CC(=O)NCCCC[C@@H](C(N)=O)NC(=O)[C@H](Cc2c[nH]c3ccccc23)NC(=O)[C@H](CCCNC(=N)N)NC(=O)[C@@H](Cc2ccccc2)NC(=O)[C@H](Cc2c[nH]cn2)NC1=O,,iTLC,human serum,"72 h, 37 °C, lead-203-labelled",,intact complex,100%
CC(=O)N[C@@H](CC(C)C)C(=O)N[C@H](C(=O)N[C@@H](Cc1ccccc1)C(=O)N[C@]1(C)CCCCCC/C=C/CCC[C@@](C)(C(=O)N[C@@H](C)C(=O)N[C@@H](C)C(=O)N[C@@H](C)C(=O)N[C@@H](C)C(=O)N[C@@H](C)C(=O)N[C@H](C)C(N)=O)NC(=O)[C@H](CC(C)C)NC(=O)[C@H](CCCCNC(=O)CCNC(=O)C[C@@H]2N=C(c3ccc(Cl)cc3)c3c(sc(C)c3C)-n3c(C)nnc32)NC(=O)[C@H](C)NC(=O)[C@H](Cc2c[nH]c3ccccc23)NC(=O)[C@H](Cc2ccc(O)cc2)NC(=O)[C@H](C)NC1=O)[C@@H](C)O,,,"male C57BL/6 mouse, plasma","intravenous, 3 mg/kg",,Cmax,2100 nM
CC(C)C[C@H](NC(=O)[C@@H]1CCCN1C(=O)[C@H](CCCCN)NC(=O)[C@@H](N)CO)C(=O)N1CCC[C@H]1C(=O)N[C@@H](CCC(=O)O)C(=O)N[C@H](C(=O)N[C@H](C(=O)N[C@@H](CC(=O)O)C(=O)N[C@@H](CCC(=O)O)C(=O)N[C@@H](Cc1ccc(O)cc1)C(=O)NCC(=O)NCCOCCOCCOCCOCCOCCOCCOCCOCCOCCOCCOCCOCCOCCOCCOCCOCCOCCOCCOCCOCCOCCOCCOCCOCCC(=O)N[C@@H](CCCCNC(=O)CC[C@H](C(=O)O)N1CCN(CC(=O)O)CCN(CC(=O)O)CC1)C(=O)N1CCN(CCCN(C)c2ccc3nccc(C(=O)NCC(=O)N4CC(F)(F)C[C@H]4C#N)c3c2)CC1)[C@@H](C)O)C(C)C [copper-64 labelled],,PET,"NMRI nude mouse, HT-1080 hFAP xenograft, tumour","intravenous, maximum tumour uptake",,SUVmean,2.1 SUV
CC(C)(C)C(=O)OCOP(=O)(OCOC(=O)C(C)(C)C)C1CCCN(O)C1=O (stereo not drawn),MDA-MB-435,,,,,log GI50,-6.02 log M
O=C1NC2(CC2)COc2ncc(F)cc2[C@H]2COCCN2c2ccn3ncc1c3n2,,,"Sprague-Dawley rat, female, serum","oral, 20 mg/kg/day, end of recovery, 4-week subacute toxicity",,serum sodium,144 ± 1 mmol/L
COc1ccccc1-c1n[nH]c2nc(NC3CCN(C(=O)Cc4ccc(F)cc4F)CC3)ncc12,,"bead binding, competition bead pull-down, item: LINJ.06.0030",Leishmania donovani extract,10 µM,reference: vehicle,relative abundance,0.99
CC(C)C[C@H](NC(=O)[C@@H](N)Cc1ccccc1)C(=O)N[C@@H](C)C(=O)N[C@H]1CSCc2cccc(n2)CSC[C@@H](C(=O)N[C@H](C(=O)NCC(=O)N[C@@H](CO)C(=O)N[C@@H](Cc2c[nH]c3ccccc23)C(=O)N[C@@H](CCCCNC(=O)CN2CCN(CC(=O)O)CCN(CC(=O)O)CCN(CC(=O)O)CC2)C(N)=O)[C@@H](C)O)NC(=O)[C@H](Cc2c[nH]cn2)NC(=O)[C@H]([C@@H](C)O)NC(=O)[C@H](CCC(=O)O)NC(=O)[C@@H]2CCCN2C1=O [gallium-68 labelled],,radio-HPLC,PBS,"2 h, 37 °C",,intact fraction,> 99%
N=C(N)NCCC[C@@H]1NC(=O)[C@H](CCCCNC(=O)CCC(NC(=S)Nc2ccc(CC3CN(CC(=O)O)CCN(CC(=O)O)CCN(CC(=O)O)CCN3CC(=O)O)cc2)C(=O)NCCCC[C@@H]2NC(=O)[C@@H](Cc3ccc(O)cc3)NC(=O)[C@H](CC(=O)O)NC(=O)CNC(=O)[C@H](CCCNC(=N)N)NC2=O)NC(=O)[C@@H](Cc2ccc(O)cc2)NC(=O)[C@H](CC(=O)O)NC(=O)CNC1=O (stereo partly drawn) [scandium-44 labelled],,ex vivo γ-counting,"female athymic nude mice, U-87 MG xenograft, skin","intravenous, 4 h",,tissue uptake,0.64 ± 0.33 %ID/g

# A few entries again:
Compound,target or system,assay,test system,conditions,scale,endpoint,result
CCCCCCCCCCCCCCC(=O)N[C@@H](CCCCNC(=O)CN1CCN(CC(=O)O)CCN(CC(=O)O)CCN(CC(=O)O)CC1)C(=O)NCCCC[C@@H]1NC(=O)[C@@H](Cc2ccccc2)NC(=O)[C@H](CC(=O)O)NC(=O)CNC(=O)[C@H](CCCNC(=N)N)NC1=O [indium-111 labelled],,,"female BALB/c nude mice, U-87 MG xenograft, blood","intravenous, dose not given, 4 h",,blood radioactivity,5.8 ± 0.44 %ID/g
CC[C@H](C)[C@@H]([C@@H](CC(=O)N1CCC[C@H]1[C@H](OC)[C@@H](C)C(=O)N[C@H](C)[C@@H](O)c1ccccc1)OC)N(C)C(=O)[C@@H](NC(=O)[C@H](C(C)C)N(C)C(=O)OCc1ccc(NC(=O)[C@H](CCCNC(N)=O)NC(=O)[C@@H](NC(=O)CCCCCN2C(=O)CC(SC[C@H](NC(=O)[C@H](CC(=O)O)NC(=O)[C@H](Cc3ccc(O)cc3)NC(=O)[C@H](Cc3c[nH]c4ccccc34)NC(=O)[C@@H](N)CCCNC(=N)N)C(=O)O)C2=O)C(C)C)cc1)C(C)C (stereo partly drawn),,,"C57BL/6 mouse, healthy, spleen","intraperitoneal, 2.5 mg/kg, 1 h",,concentration,not detected
